# Experimental data pooled from the literature.
# Compare with care: the assays were run in different laboratories. Numbers after ± are the reported error.
# BACE1: Beta-secretase 1 (BACE1, Homo sapiens, UniProt P56817)
# UniProt P56817, sequence (whole entry, looked up): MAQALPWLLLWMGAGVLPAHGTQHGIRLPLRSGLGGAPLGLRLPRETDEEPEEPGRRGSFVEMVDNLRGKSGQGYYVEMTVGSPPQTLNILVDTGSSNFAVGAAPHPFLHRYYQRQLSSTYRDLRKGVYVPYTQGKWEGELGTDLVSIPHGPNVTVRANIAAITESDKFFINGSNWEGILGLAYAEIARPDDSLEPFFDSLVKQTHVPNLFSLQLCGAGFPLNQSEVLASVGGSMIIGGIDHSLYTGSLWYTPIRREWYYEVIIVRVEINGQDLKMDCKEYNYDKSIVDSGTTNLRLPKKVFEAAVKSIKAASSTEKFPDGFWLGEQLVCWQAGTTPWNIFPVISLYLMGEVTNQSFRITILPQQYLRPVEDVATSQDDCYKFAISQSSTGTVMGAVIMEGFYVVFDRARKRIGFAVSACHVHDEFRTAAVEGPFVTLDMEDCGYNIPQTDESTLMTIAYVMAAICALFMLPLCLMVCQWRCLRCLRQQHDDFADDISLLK
# ampC: Beta-lactamase (ampC, Escherichia coli K-12, UniProt P00811)
# UniProt P00811, sequence (whole entry, looked up): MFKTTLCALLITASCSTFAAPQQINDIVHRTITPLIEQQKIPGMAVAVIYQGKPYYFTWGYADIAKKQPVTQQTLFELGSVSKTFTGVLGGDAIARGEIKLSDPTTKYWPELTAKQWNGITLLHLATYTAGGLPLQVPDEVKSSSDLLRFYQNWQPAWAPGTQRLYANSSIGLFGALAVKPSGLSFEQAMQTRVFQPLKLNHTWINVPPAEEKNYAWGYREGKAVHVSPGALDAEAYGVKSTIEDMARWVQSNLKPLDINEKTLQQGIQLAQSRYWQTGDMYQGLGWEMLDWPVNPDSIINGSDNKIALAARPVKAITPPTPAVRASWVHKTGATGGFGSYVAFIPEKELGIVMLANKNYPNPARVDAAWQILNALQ
# UniProt A0R016, sequence (whole entry, looked up): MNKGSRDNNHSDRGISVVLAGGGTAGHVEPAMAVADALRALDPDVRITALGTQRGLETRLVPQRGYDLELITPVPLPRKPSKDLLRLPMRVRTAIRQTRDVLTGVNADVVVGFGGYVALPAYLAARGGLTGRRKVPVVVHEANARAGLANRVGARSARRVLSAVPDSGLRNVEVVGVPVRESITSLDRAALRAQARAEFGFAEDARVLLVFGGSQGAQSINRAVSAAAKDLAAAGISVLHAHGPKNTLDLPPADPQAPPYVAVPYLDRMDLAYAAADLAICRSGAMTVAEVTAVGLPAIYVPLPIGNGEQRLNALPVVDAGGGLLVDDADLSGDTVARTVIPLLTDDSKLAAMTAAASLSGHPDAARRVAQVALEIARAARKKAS
# UniProt P20309, sequence (whole entry, looked up): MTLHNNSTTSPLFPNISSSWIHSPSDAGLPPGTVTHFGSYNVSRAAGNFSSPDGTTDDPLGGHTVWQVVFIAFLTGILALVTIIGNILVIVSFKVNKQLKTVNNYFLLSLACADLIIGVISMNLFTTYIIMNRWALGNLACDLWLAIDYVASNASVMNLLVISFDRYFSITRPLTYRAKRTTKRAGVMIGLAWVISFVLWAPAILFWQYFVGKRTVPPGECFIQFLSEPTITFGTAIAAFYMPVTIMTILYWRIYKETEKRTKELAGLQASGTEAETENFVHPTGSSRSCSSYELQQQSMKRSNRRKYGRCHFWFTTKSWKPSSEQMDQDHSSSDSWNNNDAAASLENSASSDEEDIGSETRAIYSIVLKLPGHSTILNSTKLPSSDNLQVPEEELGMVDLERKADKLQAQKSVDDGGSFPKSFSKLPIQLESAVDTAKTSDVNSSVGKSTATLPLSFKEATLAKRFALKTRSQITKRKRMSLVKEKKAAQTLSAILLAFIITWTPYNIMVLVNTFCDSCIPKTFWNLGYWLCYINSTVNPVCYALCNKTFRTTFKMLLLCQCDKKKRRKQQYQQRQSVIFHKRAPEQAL
# UniProt P03372, sequence (whole entry, looked up): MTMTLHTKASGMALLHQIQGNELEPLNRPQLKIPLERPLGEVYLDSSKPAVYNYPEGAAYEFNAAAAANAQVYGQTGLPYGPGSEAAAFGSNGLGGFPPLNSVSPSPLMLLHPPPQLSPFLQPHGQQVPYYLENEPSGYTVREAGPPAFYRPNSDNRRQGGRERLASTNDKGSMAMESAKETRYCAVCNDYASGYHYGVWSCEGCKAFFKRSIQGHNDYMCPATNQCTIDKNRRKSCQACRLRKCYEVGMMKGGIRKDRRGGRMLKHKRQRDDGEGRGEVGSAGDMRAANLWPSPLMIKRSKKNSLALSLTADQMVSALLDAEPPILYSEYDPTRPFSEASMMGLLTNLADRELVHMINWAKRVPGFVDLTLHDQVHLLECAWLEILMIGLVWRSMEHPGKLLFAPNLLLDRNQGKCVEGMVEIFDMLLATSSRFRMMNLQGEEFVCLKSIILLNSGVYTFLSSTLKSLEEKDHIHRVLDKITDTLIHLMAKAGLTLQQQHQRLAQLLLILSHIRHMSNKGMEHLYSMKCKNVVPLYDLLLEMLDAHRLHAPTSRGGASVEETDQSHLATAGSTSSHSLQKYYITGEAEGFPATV
# UniProt O42275, sequence (whole entry, looked up): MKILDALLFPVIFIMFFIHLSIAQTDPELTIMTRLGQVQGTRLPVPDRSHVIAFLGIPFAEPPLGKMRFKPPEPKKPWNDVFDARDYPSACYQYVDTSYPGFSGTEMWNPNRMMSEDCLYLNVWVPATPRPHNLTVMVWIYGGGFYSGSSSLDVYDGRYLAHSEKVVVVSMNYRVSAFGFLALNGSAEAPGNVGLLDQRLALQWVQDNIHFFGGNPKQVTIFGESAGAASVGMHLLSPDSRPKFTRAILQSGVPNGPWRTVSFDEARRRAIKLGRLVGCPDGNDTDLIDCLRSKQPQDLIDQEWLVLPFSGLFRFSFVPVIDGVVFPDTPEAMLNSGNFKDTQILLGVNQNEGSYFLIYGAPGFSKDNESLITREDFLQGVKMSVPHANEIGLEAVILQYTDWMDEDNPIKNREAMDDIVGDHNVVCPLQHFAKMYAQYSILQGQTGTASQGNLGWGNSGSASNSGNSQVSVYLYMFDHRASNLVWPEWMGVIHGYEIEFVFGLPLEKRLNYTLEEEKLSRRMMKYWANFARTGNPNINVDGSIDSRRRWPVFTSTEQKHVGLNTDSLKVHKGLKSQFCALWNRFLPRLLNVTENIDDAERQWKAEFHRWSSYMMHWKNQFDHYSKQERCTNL
# UniProt Q62968, sequence (whole entry, looked up): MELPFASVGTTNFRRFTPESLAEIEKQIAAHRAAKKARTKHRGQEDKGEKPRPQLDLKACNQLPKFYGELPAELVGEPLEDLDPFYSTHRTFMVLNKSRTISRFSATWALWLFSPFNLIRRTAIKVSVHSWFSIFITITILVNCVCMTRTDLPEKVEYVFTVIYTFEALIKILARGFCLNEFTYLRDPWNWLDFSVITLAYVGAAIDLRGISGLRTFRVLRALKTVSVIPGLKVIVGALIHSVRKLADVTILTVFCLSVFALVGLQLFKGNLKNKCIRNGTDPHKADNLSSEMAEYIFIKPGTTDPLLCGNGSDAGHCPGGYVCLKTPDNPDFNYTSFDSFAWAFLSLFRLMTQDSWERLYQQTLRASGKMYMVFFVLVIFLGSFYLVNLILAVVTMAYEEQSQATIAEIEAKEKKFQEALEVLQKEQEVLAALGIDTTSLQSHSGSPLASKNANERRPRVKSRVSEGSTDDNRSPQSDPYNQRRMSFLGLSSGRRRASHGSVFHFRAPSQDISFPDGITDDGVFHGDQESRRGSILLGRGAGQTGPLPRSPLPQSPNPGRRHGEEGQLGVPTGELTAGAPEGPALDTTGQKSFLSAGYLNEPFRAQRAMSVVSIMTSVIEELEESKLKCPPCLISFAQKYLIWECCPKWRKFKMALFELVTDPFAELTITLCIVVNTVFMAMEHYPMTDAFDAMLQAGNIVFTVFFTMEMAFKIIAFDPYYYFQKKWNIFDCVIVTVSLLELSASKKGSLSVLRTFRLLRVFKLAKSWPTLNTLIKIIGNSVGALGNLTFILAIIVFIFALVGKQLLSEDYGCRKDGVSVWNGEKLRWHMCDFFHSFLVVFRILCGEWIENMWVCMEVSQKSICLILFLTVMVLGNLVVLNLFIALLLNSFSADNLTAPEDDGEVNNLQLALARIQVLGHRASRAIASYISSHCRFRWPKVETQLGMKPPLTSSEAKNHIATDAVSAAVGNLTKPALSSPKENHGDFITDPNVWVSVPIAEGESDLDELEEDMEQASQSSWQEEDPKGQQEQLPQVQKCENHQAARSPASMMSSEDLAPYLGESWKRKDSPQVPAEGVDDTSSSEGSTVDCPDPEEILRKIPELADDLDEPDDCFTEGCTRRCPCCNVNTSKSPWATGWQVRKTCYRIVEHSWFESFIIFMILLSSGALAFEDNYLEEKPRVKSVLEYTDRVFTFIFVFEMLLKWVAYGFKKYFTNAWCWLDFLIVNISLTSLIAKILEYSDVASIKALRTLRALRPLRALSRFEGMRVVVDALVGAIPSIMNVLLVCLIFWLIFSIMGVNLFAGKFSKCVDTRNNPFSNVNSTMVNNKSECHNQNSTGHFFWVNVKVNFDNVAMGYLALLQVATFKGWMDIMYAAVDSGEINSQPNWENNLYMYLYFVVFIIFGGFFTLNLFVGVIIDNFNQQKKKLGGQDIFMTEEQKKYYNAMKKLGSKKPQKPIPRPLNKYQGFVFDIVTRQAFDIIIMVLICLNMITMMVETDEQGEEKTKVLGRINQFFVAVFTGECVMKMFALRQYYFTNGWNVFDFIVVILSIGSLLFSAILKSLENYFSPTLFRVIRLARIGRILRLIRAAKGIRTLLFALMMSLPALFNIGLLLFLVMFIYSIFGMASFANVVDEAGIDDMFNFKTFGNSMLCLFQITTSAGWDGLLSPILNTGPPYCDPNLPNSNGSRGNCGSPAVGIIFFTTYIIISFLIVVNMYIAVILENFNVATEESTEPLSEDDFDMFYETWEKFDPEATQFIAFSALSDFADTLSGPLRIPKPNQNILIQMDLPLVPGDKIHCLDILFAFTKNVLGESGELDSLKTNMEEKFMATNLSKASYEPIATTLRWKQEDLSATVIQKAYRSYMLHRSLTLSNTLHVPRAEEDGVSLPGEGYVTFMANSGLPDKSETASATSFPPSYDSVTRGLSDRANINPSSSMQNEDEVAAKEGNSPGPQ
Compound,tested on,test,system,setting,how to read,quantity,value
"COC(=O)C1C(OC(c2ccc(Cl)cc2)c2ccc(Cl)cc2)CC2CCC1N2C (single isomer, unassigned)","Adenosine receptor A1 (ADORA1, Homo sapiens, UniProt P30542)","binding, radioligand displacement",,"inactive if below 75% at 10000 nM, with: [3H]DPCPX",,Ki,inactive
CN1C(=O)C2(Cc3ccc(CC45SSC(CO)(C(=O)N4C)N(C)C5=O)cc3)SSC1(CO)C(=O)N2C (racemic),"Histone acetyltransferase p300, CH1 domain (EP300, Homo sapiens, UniProt Q09472)",SPR,,p300 CH1 domain GST fusion,relative to: without DTT over 100 µM DTT,affinity loss of oxidized form,36 fold
C[C@H](CCC(=O)NCC(=O)O)[C@H]1CC[C@H]2[C@@H]3C(=O)C[C@H]4C[C@H](O)CC[C@]4(C)[C@H]3CC[C@]12C,"Ileal sodium/bile acid cotransporter (SLC10A2, Homo sapiens, UniProt Q12908)",substrate,SLC10A2-MDCK cells,with: with vs without sodium,relative to: taurocholate Jmax,normalised Jmax,0.8
CC[C@H](C)[C@H](NC(=O)[C@H](CCC(N)=O)NC(=O)[C@H](CC(C)C)NC(=O)[C@@H](NC(=O)CNC(=O)[C@H](Cc1ccc(O)cc1)NC(=O)[C@H](CC(=O)O)NC(=O)[C@@H](NC(=O)[C@H](CO)NC(=O)CNC(=O)[C@H](CC(=O)O)NC(=O)[C@@H](NC(=O)[C@H](CC(N)=O)NC(=O)[C@H](CCCNC(=N)N)NC(=O)[C@H](CC(N)=O)NC(=O)[C@@H](NC(=O)[C@H](C)NC(=O)[C@H](CCC(N)=O)NC(=O)[C@@H](NC(=O)[C@H](CC(N)=O)NC(=O)[C@H](Cc1ccccc1)NC(=O)[C@H](CC(N)=O)NC(=O)[C@H](CO)NC(=O)[C@H](CCC(=O)O)NC(=O)[C@H](Cc1ccccc1)NC(=O)[C@H](CCCCN)NC(=O)[C@H](C)NC(=O)[C@H](C)NC(=O)[C@H](CO)NC(=O)[C@@H](NC(=O)[C@H](Cc1c[nH]c2ccccc12)NC(=O)[C@H](CC(N)=O)NC(=O)CNC(=O)[C@H](CC(C)C)NC(=O)[C@H](CO)NC(=O)[C@H](Cc1ccc(O)cc1)NC(=O)CNC(=O)[C@H](CCCNC(=N)N)NC(=O)[C@H](Cc1ccc(O)cc1)NC(=O)[C@H](CC(N)=O)NC(=O)[C@@H](N)CC(=O)O)C(C)C)[C@@H](C)O)[C@@H](C)O)[C@@H](C)O)[C@@H](C)O)[C@@H](C)CC)C(=O)O,"Periplasmic serine endoprotease DegP (degP, Escherichia coli, UniProt P0C0V0)","reporter cleavage, activator",,"with: protease 1 µM, reporter 100 µM",,concentration for maximal activation,2 to 5 µM
CC(C)P(=S)(NP(=[Se])(C(C)C)C(C)C)C(C)C,"Alpha-amylase (Bacillus subtilis, UniProt P00691)","binding, FRET",,298 K,,donor–acceptor distance,2.03 nm
O=C([O-])CN1CCN(CC(=O)NCCN(Cc2ccccn2)Cc2ccccn2)CCN(CC(=O)[O-])CCN(CC(=O)NCCN(Cc2ccccn2)Cc2ccccn2)CC1.[Gd+3],"Albumin, Zn(II)-bound (ALB, Homo sapiens, UniProt P02768)",relaxometry,,"323 K, with: Zn(II)",relative to: 310 K,relaxivity r1,increased
c1ccc2c(Nc3c4c(nc5ccccc35)CCCC4)cccc2c1,"Acetylcholinesterase (ache, Electrophorus electricus, UniProt O42275)","enzyme activity, inhibitor, Ellman",,50 µM,,inhibition,56.9%
CN[C@](C)(C[18F])C(=O)O,A549 tumour model,,"host not given, tumour","1 h, tumour-bearing",,tracer uptake,3.8 %ID/g
CCc1ccc(/C=C/C(=O)c2ccc(N3CCNCC3)cc2)cc1,BACE1,"enzyme activity, inhibitor, fluorescence",,10 µM,,remaining activity,61%
CCc1cccc2c(C(=O)NC3CCN(C(=O)C(C)C)CC3)c[nH]c12,"Genome polyprotein, 3C protease (rhinovirus B14, UniProt P03303)","protease activity, SAMDI-MS",,,,Hill slope,0.96
CC(=O)N[C@H]1[C@@H](OC[C@H](NC(=O)CNC(=O)[C@@H]2CCCN2C(=O)[C@H](C)NC(=O)[C@@H]2CCCN2C(=O)[C@@H](N)CCCNC(=N)N)C(=O)N[C@H](C(=O)N[C@@H](C)C(=O)N2CCC[C@H]2C(=O)N2CCC[C@H]2C(=O)N[C@@H](C)C(=O)N[C@@H](Cc2c[nH]cn2)C(=O)NCC(=O)O)[C@@H](C)O[C@H]2O[C@H](CO)[C@H](O)[C@H](O)[C@H]2NC(C)=O)O[C@H](CO)[C@H](O)[C@@H]1O,"anti-MUC1 Fab 14 A wild type, murine",SPR,,,relative to: Glyco-S,kd decrease,36.3 fold
C=C(C)C(=O)Oc1ccc(C(C)(C)c2ccc(OC(=O)C(=C)C)cc2)cc1,"Estrogen receptor (ESR1, Homo sapiens, UniProt P03372)","reporter gene, agonist",MVLN,24 h,,LOEC,5 µM
CC(=O)N[C@H]1[C@@H](OP(=O)(O)OP(=O)(O)OC/C=C(/C)CC/C=C(/C)CC/C=C(/C)CC/C=C(/C)CC/C=C(/C)CC/C=C(/C)CC/C=C(/C)CC/C=C(/C)CC/C=C(\C)CC/C=C(\C)CCC=C(C)C)O[C@H](CO)[C@@H](O)[C@@H]1O[C@H](C)C(=O)N[C@@H](C)C(=O)N[C@H](CCC(=O)N[C@@H](CCCCNC(=O)OCCCCCCNC(=S)Nc1ccc(NS(=O)(=O)c2cccc3c(N(C)C)cccc23)cc1)C(=O)N[C@H](C)C(=O)N[C@H](C)C(=O)O)C(=O)O,"UDP-N-acetylglucosamine--N-acetylmuramyl-(pentapeptide) pyrophosphoryl-undecaprenol N-acetylglucosamine transferase (murG, Mycolicibacterium smegmatis, UniProt A0R016)",substrate,,with: UDP-GlcNAc 375.0 µM,,Km,40 ± 5 µM
CCN(Cc1ccccc1)C(=O)CCc1nc(CN2CCN(C(=O)Cc3ccc(OC)c(OC)c3)CC2)no1,"Sodium channel protein type 10 subunit alpha (Scn10a, Rattus norvegicus, UniProt Q62968)",whole-cell patch clamp,rat DRG neurons,1 µM,,V1/2 of activation,-20.4 ± 1.47 mV
O=C(NCc1ccc(F)cc1)c1nc(NCCO)c2cccnc2c1O,"Tripartite terminase subunit 3, C-terminal nuclease domain (Human betaherpesvirus 5, UniProt P16732)",thermal shift,,"20 µM, unit not given",relative to: DMSO,ΔTm,> 0
CN(C)c1ncnc2c1ncn2[C@@H]1O[C@@H]2COP(=O)(O)O[C@H]3[C@@H](O)[C@H](n4cnc5c(N(C)C)ncnc54)O[C@@H]3COP(=O)(O)O[C@H]2[C@H]1O,ydaO riboswitch wild type (Bacillus subtilis),competition gel-shift,,concentration not given,"relative to: c-di-AMP, higher = weaker binding",binding affinity fold loss,> 910000
CN1CCN(c2nc3ccccc3nc2Cl)CC1,"5-hydroxytryptamine receptor 3A (HTR3A, Homo sapiens, UniProt P46098)","agonist response, two-electrode voltage clamp",Xenopus oocytes,concentration not given,,duration of inhibition,> 20 min
CS(C)(=O)=Nc1ccc(-c2ccc(-c3nc4cc(O[C@@H]5CO[C@H]6[C@@H]5OC[C@H]6O)[nH]c4cc3F)cc2)cc1,"PRKAA1/PRKAB1, with gamma1 (Homo sapiens, UniProt Q13131+Q9Y478)","enzyme activity, activator",,"60 min, 50% above basal activity, with: ATP 50 µM",,EC150,0.337 nM
COc1ccc2cc1Oc1ccc(cc1)C[C@H]1c3cc(c(OC)cc3CC[N@+]1(C)Cc1ccc3ccc4cccc5ccc1c3c45)Oc1c(OC)c(OC)cc3c1[C@H](C2)[N@@+](C)(Cc1ccc2ccc4cccc5ccc1c2c45)CC3,poly(dA)·poly(dT) 18-bp dsDNA,"DNA binding, ethidium bromide displacement","phosphate buffer, 10% DMSO","pH 7.2, 25 °C, dsDNA 10 µM, 10 mM NaCl, with: ethidium bromide 5 µM",,Stern-Volmer constant,13400 M⁻¹
O=C(/C=C/c1ccc(Br)cc1)c1cc2ccccc2oc1=O,BACE1,"enzyme activity, inhibitor, fluorescence",,10 µM,,remaining activity,75.6%
CCCC[C@H](NC=O)C(=O)N[C@@H](CCCC)C(=O)N[C@@H](Cc1c[nH]c2ccccc12)C(=O)N[C@@H](CCC(=O)O)C(=O)N[C@@H](CC(=O)O)C(=O)N[C@@H](Cc1c[nH]c2ccccc12)C(=O)N[C@H](C(=O)NCC(=O)N[C@@H](Cc1c[nH]c2ccccc12)C(=O)N[C@H](C(=O)O)[C@@H](C)CC)C(C)C,"fMet-Leu-Phe receptor (FPR1, Homo sapiens, UniProt P21462, N192K)",receptor downregulation,CHO cells,,,Ki/EC50 ratio,> 10 fold
CC(C(=O)O)N(c1ccccc1)S(C)(=O)=O (stereo not shown),ampC,,,,,ligand efficiency,0.24
Clc1ccc2c(c1)N=C(N1CCNCC1)c1ccccc1N2,"Muscarinic acetylcholine receptor M3 (CHRM3, Homo sapiens, UniProt P20309)","calcium flux, agonist, FLIPR",,,relative to: acetylcholine,Emax,86%
CC(C)C[C@H](NC(=O)[C@H](CCCNC(=N)N)NC(=O)[C@H](Cc1ccccc1)NC(=O)[C@H](Cc1ccccc1)NC(=O)[C@H](Cc1ccccc1)N(C)C(=O)COc1ccccc1)C(=O)N[C@@H](CCCNC(=N)N)C(=O)N[C@@H](CCCNC(=N)N)C(=O)N[C@H](C)C(=O)N[C@@H](CCCNC(=N)N)C(=O)N1CCC[C@H]1C(=O)N[C@@H](CCCCN)C(N)=O,"Kappa-type opioid receptor (Oprk1, Rattus norvegicus, UniProt P34975)",agonist,CHO cells,10 µM,relative to: dynorphin A(1-13) amide,adenylyl cyclase activity,98 ± 21%
CC1C=CC(C)C(C(=O)O)C1C(=O)O (stereo not shown),ampC,,,,,ligand efficiency,0.33
